Measurements collected from several papers.
Numbered parts are unrelated; each lists some results of a single study.
Chain of UniProt Q15569 (whole entry, looked up): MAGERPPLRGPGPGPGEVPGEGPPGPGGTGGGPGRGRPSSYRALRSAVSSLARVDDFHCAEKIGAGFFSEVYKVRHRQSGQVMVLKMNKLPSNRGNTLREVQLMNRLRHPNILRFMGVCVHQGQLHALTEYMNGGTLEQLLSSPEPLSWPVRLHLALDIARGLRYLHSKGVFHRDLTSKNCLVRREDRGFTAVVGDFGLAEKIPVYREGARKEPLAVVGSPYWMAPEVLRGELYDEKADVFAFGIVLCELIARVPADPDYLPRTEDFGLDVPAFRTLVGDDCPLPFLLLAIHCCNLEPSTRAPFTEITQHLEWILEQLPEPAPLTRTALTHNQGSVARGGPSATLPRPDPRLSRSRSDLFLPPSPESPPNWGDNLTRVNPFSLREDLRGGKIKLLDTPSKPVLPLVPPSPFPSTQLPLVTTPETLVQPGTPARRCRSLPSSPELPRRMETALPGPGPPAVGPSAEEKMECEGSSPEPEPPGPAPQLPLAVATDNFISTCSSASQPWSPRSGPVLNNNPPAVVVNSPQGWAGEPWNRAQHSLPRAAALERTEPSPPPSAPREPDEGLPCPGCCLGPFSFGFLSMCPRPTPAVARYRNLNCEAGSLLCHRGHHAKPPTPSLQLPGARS
Chain of UniProt Q8TD19 (whole entry, looked up): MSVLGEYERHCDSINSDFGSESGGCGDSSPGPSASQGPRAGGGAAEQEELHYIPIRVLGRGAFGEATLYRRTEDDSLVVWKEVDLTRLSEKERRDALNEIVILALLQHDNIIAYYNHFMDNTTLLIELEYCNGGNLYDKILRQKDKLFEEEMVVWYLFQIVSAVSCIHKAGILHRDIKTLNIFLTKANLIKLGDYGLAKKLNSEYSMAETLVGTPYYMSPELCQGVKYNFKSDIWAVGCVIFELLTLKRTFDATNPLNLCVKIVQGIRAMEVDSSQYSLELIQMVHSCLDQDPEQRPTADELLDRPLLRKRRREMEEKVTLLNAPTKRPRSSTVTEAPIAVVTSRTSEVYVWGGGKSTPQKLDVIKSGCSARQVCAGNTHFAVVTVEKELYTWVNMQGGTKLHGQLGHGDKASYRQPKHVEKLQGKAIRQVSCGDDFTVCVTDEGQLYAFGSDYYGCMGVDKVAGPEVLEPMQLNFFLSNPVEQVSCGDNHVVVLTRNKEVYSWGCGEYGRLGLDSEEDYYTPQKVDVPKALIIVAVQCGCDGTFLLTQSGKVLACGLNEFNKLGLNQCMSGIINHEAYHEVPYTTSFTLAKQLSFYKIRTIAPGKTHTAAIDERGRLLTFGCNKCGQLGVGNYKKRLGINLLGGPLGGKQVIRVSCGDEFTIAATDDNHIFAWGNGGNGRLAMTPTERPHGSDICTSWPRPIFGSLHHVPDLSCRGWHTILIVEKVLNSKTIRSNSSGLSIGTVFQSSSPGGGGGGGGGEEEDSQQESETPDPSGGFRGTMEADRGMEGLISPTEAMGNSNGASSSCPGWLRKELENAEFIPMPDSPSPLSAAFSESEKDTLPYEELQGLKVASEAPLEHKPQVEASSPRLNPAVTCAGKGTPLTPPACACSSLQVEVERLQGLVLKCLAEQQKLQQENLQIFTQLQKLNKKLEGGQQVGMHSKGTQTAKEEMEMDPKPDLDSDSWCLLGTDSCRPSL
Chain of UniProt P49137 (whole entry, looked up): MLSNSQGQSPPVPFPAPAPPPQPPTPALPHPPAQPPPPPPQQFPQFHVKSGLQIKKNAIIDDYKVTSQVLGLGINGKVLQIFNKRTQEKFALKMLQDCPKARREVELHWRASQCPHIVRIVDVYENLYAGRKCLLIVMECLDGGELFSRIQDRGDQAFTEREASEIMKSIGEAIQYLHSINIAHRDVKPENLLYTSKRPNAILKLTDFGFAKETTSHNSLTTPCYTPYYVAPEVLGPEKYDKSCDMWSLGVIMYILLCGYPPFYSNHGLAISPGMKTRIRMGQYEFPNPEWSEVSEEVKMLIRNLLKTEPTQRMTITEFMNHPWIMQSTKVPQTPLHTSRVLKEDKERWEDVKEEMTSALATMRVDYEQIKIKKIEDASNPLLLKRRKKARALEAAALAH
Chain of UniProt Q2M2I8 (whole entry, looked up): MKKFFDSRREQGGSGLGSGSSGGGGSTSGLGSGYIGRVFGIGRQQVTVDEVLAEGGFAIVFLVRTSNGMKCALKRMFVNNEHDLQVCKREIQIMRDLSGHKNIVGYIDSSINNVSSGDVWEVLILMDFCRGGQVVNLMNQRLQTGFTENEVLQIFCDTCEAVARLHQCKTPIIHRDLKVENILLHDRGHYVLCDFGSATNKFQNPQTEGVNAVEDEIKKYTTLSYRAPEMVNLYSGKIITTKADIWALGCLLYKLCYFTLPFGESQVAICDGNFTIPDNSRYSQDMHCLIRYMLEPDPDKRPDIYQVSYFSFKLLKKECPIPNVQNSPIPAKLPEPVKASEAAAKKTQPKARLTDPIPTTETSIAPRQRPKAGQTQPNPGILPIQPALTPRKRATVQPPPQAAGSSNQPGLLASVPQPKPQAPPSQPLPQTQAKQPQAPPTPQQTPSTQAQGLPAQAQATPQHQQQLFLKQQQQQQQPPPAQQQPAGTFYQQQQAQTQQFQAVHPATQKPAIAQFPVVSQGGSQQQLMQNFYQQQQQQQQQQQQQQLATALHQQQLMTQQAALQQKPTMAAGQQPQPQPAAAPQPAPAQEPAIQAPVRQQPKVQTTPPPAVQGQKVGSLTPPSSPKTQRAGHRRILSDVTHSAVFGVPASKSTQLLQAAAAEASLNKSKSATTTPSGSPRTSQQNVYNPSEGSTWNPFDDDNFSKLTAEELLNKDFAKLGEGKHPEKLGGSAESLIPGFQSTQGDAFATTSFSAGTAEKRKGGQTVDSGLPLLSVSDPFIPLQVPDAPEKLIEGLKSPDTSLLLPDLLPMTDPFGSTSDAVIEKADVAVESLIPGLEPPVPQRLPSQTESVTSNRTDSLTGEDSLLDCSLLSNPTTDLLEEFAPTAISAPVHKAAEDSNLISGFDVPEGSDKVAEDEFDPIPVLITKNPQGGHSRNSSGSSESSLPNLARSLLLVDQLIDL
Chain of UniProt Q8IWQ3 (whole entry, looked up): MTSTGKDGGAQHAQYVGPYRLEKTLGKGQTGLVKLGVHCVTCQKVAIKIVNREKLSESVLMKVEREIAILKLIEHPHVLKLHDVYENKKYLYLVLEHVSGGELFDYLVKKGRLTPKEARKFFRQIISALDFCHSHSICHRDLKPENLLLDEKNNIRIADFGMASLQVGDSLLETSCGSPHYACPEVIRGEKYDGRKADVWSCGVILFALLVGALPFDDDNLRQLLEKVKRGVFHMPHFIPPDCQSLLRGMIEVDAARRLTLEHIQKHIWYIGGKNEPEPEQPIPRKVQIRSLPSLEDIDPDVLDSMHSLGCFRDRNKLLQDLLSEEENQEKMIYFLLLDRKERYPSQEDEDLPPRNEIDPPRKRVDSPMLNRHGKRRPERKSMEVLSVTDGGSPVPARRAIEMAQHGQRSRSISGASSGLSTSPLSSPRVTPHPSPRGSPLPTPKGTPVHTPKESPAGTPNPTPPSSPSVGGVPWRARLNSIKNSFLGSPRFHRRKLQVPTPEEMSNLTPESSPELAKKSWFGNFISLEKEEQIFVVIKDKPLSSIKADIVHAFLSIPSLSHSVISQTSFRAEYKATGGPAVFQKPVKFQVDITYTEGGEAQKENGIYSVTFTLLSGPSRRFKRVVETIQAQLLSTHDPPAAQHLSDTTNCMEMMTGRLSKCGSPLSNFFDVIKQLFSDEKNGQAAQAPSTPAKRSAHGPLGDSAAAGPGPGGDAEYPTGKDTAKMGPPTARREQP
Chain of UniProt Q9UHD2 (whole entry, looked up): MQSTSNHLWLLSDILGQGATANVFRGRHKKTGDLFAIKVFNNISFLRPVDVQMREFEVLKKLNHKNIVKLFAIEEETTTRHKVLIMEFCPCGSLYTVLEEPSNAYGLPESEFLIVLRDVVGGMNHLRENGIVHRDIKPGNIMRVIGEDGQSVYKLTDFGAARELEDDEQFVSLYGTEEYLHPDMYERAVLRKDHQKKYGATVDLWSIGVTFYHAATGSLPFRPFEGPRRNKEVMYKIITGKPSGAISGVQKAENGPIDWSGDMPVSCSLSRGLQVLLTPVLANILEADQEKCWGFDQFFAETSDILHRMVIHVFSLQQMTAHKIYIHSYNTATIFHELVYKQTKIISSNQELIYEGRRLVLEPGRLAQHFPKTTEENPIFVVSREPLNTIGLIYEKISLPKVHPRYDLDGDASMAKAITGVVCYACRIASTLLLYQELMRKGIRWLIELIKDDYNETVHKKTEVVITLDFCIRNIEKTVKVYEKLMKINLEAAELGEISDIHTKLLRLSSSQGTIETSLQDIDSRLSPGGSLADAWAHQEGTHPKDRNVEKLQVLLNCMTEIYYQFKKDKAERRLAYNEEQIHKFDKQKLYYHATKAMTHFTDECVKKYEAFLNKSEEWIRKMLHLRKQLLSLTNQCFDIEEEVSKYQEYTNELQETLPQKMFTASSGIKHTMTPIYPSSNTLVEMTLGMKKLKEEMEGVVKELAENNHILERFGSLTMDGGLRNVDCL
Chain of UniProt P06239 (whole entry, looked up): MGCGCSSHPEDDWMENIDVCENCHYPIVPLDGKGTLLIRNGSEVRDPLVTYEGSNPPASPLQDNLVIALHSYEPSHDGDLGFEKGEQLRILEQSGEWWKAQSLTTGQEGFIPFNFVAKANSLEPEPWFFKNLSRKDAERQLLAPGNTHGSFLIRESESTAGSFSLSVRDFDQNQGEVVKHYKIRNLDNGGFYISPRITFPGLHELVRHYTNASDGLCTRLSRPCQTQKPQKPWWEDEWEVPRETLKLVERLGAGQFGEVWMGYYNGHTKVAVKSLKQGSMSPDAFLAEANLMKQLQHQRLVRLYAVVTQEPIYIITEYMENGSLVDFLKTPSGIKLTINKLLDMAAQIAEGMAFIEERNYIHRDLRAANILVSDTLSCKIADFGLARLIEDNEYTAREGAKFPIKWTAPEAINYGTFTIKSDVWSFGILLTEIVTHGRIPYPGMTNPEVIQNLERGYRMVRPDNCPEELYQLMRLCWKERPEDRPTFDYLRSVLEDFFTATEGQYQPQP

Series 1 — read-out: enzyme activity; action: inhibitor; concentration: 0.5 µM; reference: control; endpoint: remaining activity
Target: Ephrin type-B receptor 3 (EPHB3, Homo sapiens, UniProt P54753)
Residues (P54753 1-998): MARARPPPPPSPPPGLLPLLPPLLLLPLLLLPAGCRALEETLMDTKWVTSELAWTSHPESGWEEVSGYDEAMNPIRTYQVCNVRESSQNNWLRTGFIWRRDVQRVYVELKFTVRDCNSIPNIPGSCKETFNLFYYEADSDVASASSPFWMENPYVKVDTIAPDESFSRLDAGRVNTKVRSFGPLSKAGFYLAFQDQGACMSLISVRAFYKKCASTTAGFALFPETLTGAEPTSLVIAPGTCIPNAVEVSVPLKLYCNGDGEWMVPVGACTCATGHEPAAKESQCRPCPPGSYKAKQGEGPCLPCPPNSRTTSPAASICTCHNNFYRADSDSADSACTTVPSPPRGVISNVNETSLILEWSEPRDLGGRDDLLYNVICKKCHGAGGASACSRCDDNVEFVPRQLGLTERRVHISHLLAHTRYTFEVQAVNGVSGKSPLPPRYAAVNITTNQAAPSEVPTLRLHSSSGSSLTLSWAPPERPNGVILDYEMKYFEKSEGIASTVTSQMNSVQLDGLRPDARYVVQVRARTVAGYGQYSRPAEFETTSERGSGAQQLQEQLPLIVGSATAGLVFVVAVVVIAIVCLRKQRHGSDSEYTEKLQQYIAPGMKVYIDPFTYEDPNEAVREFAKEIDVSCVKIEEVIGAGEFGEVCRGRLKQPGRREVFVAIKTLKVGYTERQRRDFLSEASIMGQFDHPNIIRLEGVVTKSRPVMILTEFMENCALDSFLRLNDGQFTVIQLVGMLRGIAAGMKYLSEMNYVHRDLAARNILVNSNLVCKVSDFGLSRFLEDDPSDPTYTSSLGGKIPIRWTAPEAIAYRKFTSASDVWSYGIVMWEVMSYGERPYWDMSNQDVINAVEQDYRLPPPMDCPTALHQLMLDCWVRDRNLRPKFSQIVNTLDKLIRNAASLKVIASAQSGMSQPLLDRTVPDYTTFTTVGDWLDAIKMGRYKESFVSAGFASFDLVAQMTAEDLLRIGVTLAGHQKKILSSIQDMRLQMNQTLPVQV
SMILES = O=Nc1c(-c2c(O)[nH]c3ccccc23)[nH]c2ccccc12; value = 92.3%
SMILES = COc1cc2c(Nc3ccc(Br)cc3F)ncnc2cc1OCC1CCN(C)CC1; value = 77.4%
SMILES = CC(C)(C)c1nc2c3cc[nH]c(=O)c3c3cc(F)ccc3c2[nH]1; value = 87.1%
SMILES = NC(=O)c1ccc(-c2nc(-c3ccc4c(c3)OCCO4)c(-c3ccccn3)[nH]2)cc1; value = 91.8%
SMILES = N#CC(c1ccnc(NCCc2cccnc2)n1)c1nc2ccccc2s1 (stereo not drawn); value = 91%
SMILES = N#C/C(=C(/N)SC1C=CC=CC1)c1cccc(C(O)c2ccncc2)c1 (stereo not drawn); value = 95.4%
SMILES = O=C1NC(=O)/C(=C/c2ccc3c(c2)OC(F)(F)O3)S1; value = 93.1%
SMILES = FC(F)(F)c1ccc(/C=C/c2nc(COc3ccc(CCCCn4ccnn4)cc3)co2)cc1; value = 94.9%
SMILES = CCN(CC)CCCCN1c2ccccc2Oc2ccc(Cl)cc21; value = 112%
SMILES = c1cc(-c2cnn3cc(-c4ccc(OCCN5CCCCC5)cc4)cnc23)ccn1; value = 97%
SMILES = C[C@@H](N)[C@H]1CC[C@H](C(=O)Nc2ccncc2)CC1; value = 95.9%
SMILES = CC(C)N(CCC(=O)c1ccc2ccccc2c1)Cc1ccccc1; value = 88.5%
SMILES = CC(C)n1cnc2c(Nc3cccc(Cl)c3)nc(NCCO)nc21; value = 119%
SMILES = O=C(O)/C=C/c1cc(Br)c(Br)c(Br)c1Br; value = 89.8%
SMILES = O=c1c(-c2ccc(F)cc2)c(-c2ccncc2)[nH]n1-c1ccc(Cl)cc1; value = 92.2%
SMILES = Nc1nc(Nc2ccc(S(N)(=O)=O)cc2)nn1C(=S)Nc1c(F)cccc1F; value = 90.4%
SMILES = CNc1cc2c(Nc3cccc(Br)c3)ncnc2cn1; value = 92.7%
SMILES = NC(=O)c1cccc(-c2cc(Nc3ccc(OC(F)(F)F)cc3)ncn2)c1; value = 98%
SMILES = O=C1c2ccccc2-c2nc3nnnn3nc21; value = 90.2%
SMILES = O=C(c1ccccc1)c1ccc(N2CCOCC2)cc1O; value = 92.2%
SMILES = COc1cc2c(N3CCN(C(=O)Nc4ccc(OC(C)C)cc4)CC3)ncnc2cc1OCCCN1CCCCC1; value = 84.2%

Series 2 — read-out: binding; concentration: 1 µM; endpoint: remaining binding
Structure (SMILES): Cc1ccc(NC(=O)c2ccnc(C(F)(F)F)c2)cc1-c1cc(OCCO)nc(N2CCOCC2)c1
target = Serine/threonine-protein kinase haspin (HASPIN, Homo sapiens, UniProt Q8TF76); value = 100%
target = Serine/threonine-protein kinase Nek9 (NEK9, Homo sapiens, UniProt Q8TD19); value = 100%
target = STE20-like serine/threonine-protein kinase (SLK, Homo sapiens, UniProt Q9H2G2); technique = competition with immobilised ligand; value = 92%
target = MAP kinase-activated protein kinase 2 (MAPKAPK2, Homo sapiens, UniProt P49137); value = 100%
target = Mitogen-activated protein kinase kinase kinase kinase 1 (MAP4K1, Homo sapiens, UniProt Q92918); technique = competition with immobilised ligand; value = 83%
target = Ephrin type-B receptor 4 (EPHB4, Homo sapiens, UniProt P54760); technique = competition with immobilised ligand; value = 87%
target = Peripheral plasma membrane protein CASK (CASK, Homo sapiens, UniProt O14936); value = 77%
target = Serine/threonine-protein kinase TBK1 (TBK1, Homo sapiens, UniProt Q9UHD2); value = 78%
target = Mitogen-activated protein kinase kinase kinase kinase 4 (MAP4K4, Homo sapiens, UniProt O95819); technique = competition with immobilised ligand; value = 88%
target = Tyrosine-protein kinase Lck (LCK, Homo sapiens, UniProt P06239); technique = competition with immobilised ligand; value = 71%
target = Dual specificity testis-specific protein kinase 1 (TESK1, Homo sapiens, UniProt Q15569); technique = competition with immobilised ligand; value = 100%
target = Serine/threonine-protein kinase BRSK2 (BRSK2, Homo sapiens, UniProt Q8IWQ3); value = 100%

Series 3 — organism: Sarcocystis neurona; read-out: parasite growth; concentration: 10 µM; time: 96 h; reference: untreated; endpoint: log2 fold change
SMILES = C/C=C1\[C@H]2C=C(C)C[C@]1(N)c1ccc(=O)[nH]c1C2; value = 0.29
SMILES = CN1CCC(=C2c3ccccc3C=Cc3ccccc32)CC1; value = -0.19
SMILES = CC(C)Oc1ccc2c(=O)c(-c3ccccc3)coc2c1; value = 2.59
SMILES = NNC(=O)c1ccncc1; value = 0.34
SMILES = N#Cc1ccc(C(c2ccc(C#N)cc2)n2cncn2)cc1; value = 0.35
SMILES = CCC(C)n1ncn(-c2ccc(N3CCN(c4ccc(OCC5COC(Cn6cncn6)(c6ccc(Cl)cc6Cl)O5)cc4)CC3)cc2)c1=O (stereo not drawn); value = 0.42
SMILES = CO/N=C(\C(=O)N[C@@H]1C(=O)N2C(C(=O)O)=C(COC(N)=O)CS[C@H]12)c1ccco1; value = 0.24
SMILES = CC1=C(/C=C/C(C)=C/C=C/C(C)=C/C(=O)O)C(C)(C)CCC1; value = 0.48
SMILES = CCC(C)(C)C(=O)O[C@H]1C[C@@H](C)C=C2C=C[C@H](C)[C@H](CC[C@@H]3C[C@@H](O)CC(=O)O3)[C@H]21; value = 0.35
SMILES = Clc1ccccc1C(c1ccccc1)(c1ccccc1)n1ccnc1; value = -1.12
SMILES = Nc1nnc(-c2cccc(Cl)c2Cl)c(N)n1; value = 0.3
SMILES = CC12CC3CC(C)(C1)CC(N)(C3)C2; value = 0.32
SMILES = CC(N)C12CC3CC(CC(C3)C1)C2 (stereo not drawn); value = 0.3
SMILES = c1cnc(N2CCN(Cc3ccc4c(c3)OCO4)CC2)nc1; value = 0.42

Single results of other studies
Structure (SMILES) = COc1ccc2c(c1)O[C@@H](c1ccc(OC)c(OC)c1)C[C@H]2NC(=O)C1(c2ccc3c(c2)OC(F)(F)O3)CC1 (single isomer, unassigned); target = AP2-associated protein kinase 1 (AAK1, Homo sapiens, UniProt Q2M2I8); technique = KINOMEscan; concentration = 1 µM; reference = control; endpoint = remaining binding; value = 100%

Excerpt of the above (series 3):
SMILES = CCC(C)n1ncn(-c2ccc(N3CCN(c4ccc(OCC5COC(Cn6cncn6)(c6ccc(Cl)cc6Cl)O5)cc4)CC3)cc2)c1=O (stereo not drawn); value = 0.42
SMILES = Nc1nnc(-c2cccc(Cl)c2Cl)c(N)n1; value = 0.3
SMILES = CC1=C(/C=C/C(C)=C/C=C/C(C)=C/C(=O)O)C(C)(C)CCC1; value = 0.48
SMILES = CO/N=C(\C(=O)N[C@@H]1C(=O)N2C(C(=O)O)=C(COC(N)=O)CS[C@H]12)c1ccco1; value = 0.24
SMILES = NNC(=O)c1ccncc1; value = 0.34
SMILES = CCC(C)(C)C(=O)O[C@H]1C[C@@H](C)C=C2C=C[C@H](C)[C@H](CC[C@@H]3C[C@@H](O)CC(=O)O3)[C@H]21; value = 0.35
SMILES = c1cnc(N2CCN(Cc3ccc4c(c3)OCO4)CC2)nc1; value = 0.42
